{"data": "Measured values from different studies", "note": "A part holds a random share of what one study measured."}
{"data": "Block 1", "target": "5-hydroxytryptamine receptor 1A (HTR1A, Homo sapiens, UniProt P08908)", "effect on": "ligand displacement", "method": "radioligand", "concentration": "10 µM"}
{"SMILES": "CCOCCn1cc(C(=O)Nc2ccc(-n3nc(-c4cccnc4)cc3C(F)(F)F)cn2)ccc1=O", "inhibition": "13.9%"}
{"SMILES": "CN(C)C(=O)Cn1cc(-c2nc(C3(c4ccc(-c5cnc(N)nc5)cc4)CC3)no2)cn1", "inhibition": "31.5%"}
{"SMILES": "Cc1c(NC(=O)c2cc(C(N)=O)nc3cc(F)ccc23)c(C(F)(F)F)nn1Cc1ccc(C(C)(C)C)cc1", "inhibition": "18.6%"}
{"SMILES": "CC(C)CC(=O)N1CCc2nc(-c3ccc(Br)cc3)nc(N(C)Cc3ccccc3)c2C1", "inhibition": "-0.56%"}
{"SMILES": "C[C@H](NC(=O)Nc1cc2[nH]ncc2c(CO)n1)c1ccccn1", "inhibition": "20%"}
{"SMILES": "CC(=O)Nc1c(C(C)=O)c(=O)n(C)c2nc(-c3ccc(Cl)cc3Cl)c(-c3ccc(Cl)cc3)cc12", "inhibition": "12.2%"}
{"SMILES": "CC1=C(C#N)[C@@H](c2ccc3[nH]nc(C)c3c2)C(C#N)=C(c2ccc(Cl)cc2)N1", "inhibition": "2.67%"}
{"SMILES": "Cc1nc(N2CC[C@@H](O)C2)ncc1-c1cc(C(F)(F)F)cc2[nH]ncc12", "inhibition": "20%"}
{"SMILES": "N#Cc1ccc(Nc2ccc3[nH]c(=O)[nH]c3c2)c(Cl)c1", "inhibition": "-5.44%"}
{"SMILES": "O=C(N1CCS(=O)(=O)CC1)N1C[C@H](c2ccc(OC(F)(F)F)cc2)C[C@H](c2nc(C3CC3)no2)C1", "inhibition": "14.7%"}
{"SMILES": "CNC(=O)Nc1ccc2c(c1)C1(CC2)OC(=O)N(CC(=O)N(Cc2ccc(F)cc2)[C@@H](C)C(F)(F)F)C1=O (single isomer, unassigned)", "inhibition": "4.17%"}
{"SMILES": "CCCCN(CCCC)C(=O)CN1C[C@@H](c2cc(OC)c3c(c2)OCO3)[C@H](C(=O)O)[C@H]1CC(C)(C)CCC", "inhibition": "76.3%"}
{"SMILES": "CNCc1ccccc1-c1csc([C@@H](C)Nc2nc(C)nc3cc(OC)c(OC)cc23)c1", "inhibition": "56.5%"}
{"SMILES": "Cn1nc(C(=O)NCc2ccc(C(=O)O)cc2)cc1-c1ccc2[nH]ccc2c1", "inhibition": "22.7%"}
{"SMILES": "O=C(Nc1cccnn1)N1CCC(=Cc2cccc(Oc3ccc(C(F)(F)F)cn3)c2)CC1", "inhibition": "20.2%"}
{"SMILES": "Cn1cc(Cl)c2c(Oc3c(F)cc(Nc4cc(Cl)nc(N)n4)cc3F)ccnc21", "inhibition": "-10.7%"}
{"data": "Block 2", "target": "Interferon regulatory factor 5, full length, phosphomimetic (IRF5, Homo sapiens, UniProt Q13568-2, residues 1-514, K96S/S451D/S453D/S456D/S462D)", "method": "protein-binding microarray", "molecule type": "double-stranded DNA, one strand shown", "medium": "in vitro", "concentration": "250 nM", "notes": "60-bp whole probe", "together with": "salmon DNA 0.4 mg/ml", "baseline": "random background probes", "reading": "higher = stronger binding", "constant ends, left off below": "GCCTAGCAC … GTCTTGATTCGCTTGACGCTGCTG"}
{"Sequence": "TTAGGTATCGACAATCGGTTAGTGCTA", "log fluorescence": "3.46 z-score"}
{"Sequence": "CTAGGTATCGGTATCGGTTAGTGCTAG", "log fluorescence": "9.16 z-score"}
{"Sequence": "TACGATTTCGGGTTTCGAGACGTGCTA", "log fluorescence": "4.59 z-score"}
{"Sequence": "GACGGTTTCGGTATCGGCACGTGCTAG", "log fluorescence": "9.58 z-score"}
{"Sequence": "GACGGACTGCTACAGCTGACGTGCTAG", "log fluorescence": "-0.356 z-score"}
{"Sequence": "TCAGCCATCAATATCTGACTGTGCTAG", "log fluorescence": "0.169 z-score"}
{"Sequence": "TCAAATTTGGAAACCGAACTGTGCTAG", "log fluorescence": "0.125 z-score"}
{"Sequence": "TTAGGTTCCGTTTTCGGTTAGTGCTAG", "log fluorescence": "7.5 z-score"}
{"data": "Block 3", "target": "Sox-I, HMG box (Salpingoeca helianthica)", "method": "Spec-seq", "molecule type": "double-stranded DNA, one strand shown", "medium": "in vitro", "concentration": "not given", "notes": "whole probe, mean of replicates", "baseline": "not given", "reading": "lower = stronger binding", "constant ends, left off below": "GAGTCGTCTCGTCAGCAC … CCGTAGAGCACTCAGGTC", "Construct (chain)": "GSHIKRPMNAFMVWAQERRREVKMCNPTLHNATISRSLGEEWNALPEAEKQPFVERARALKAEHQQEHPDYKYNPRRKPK"}
{"Sequence": "TCGAGTT", "relative binding energy": "1.11 ln ratio"}
{"Sequence": "CATGCGC", "relative binding energy": "1.2 ln ratio"}
{"Sequence": "CATATGA", "relative binding energy": "0.831 ln ratio"}
{"Sequence": "CATGCTG", "relative binding energy": "0.531 ln ratio"}
{"Sequence": "CCATGTT", "relative binding energy": "-0.00722 ln ratio"}
{"Sequence": "CATACAC", "relative binding energy": "0.102 ln ratio"}
{"Sequence": "CGACGTT", "relative binding energy": "0.858 ln ratio"}
{"Sequence": "TTATGTT", "relative binding energy": "-0.217 ln ratio"}
{"data": "Other studies, line by line"}
{"SMILES": "CCOc1nc2cccc(C(=O)OC(C)OC(=O)OC3CCCCC3)c2n1Cc1ccc(-c2ccccc2-c2nn[nH]n2)cc1 (stereo not drawn)", "organism": "Plasmodium berghei", "assay": "inhibitor", "test system": "Huh-7, GFP-expressing sporozoites, liver stage", "conditions": "10 µM, 24 h", "how to read": "baseline: untreated control", "measurement": "infection rate", "value": "97.8%"}
{"note": "Repeated from above (block 1):"}
{"SMILES": "CCCCN(CCCC)C(=O)CN1C[C@@H](c2cc(OC)c3c(c2)OCO3)[C@H](C(=O)O)[C@H]1CC(C)(C)CCC", "inhibition": "76.3%"}
{"SMILES": "CNCc1ccccc1-c1csc([C@@H](C)Nc2nc(C)nc3cc(OC)c(OC)cc23)c1", "inhibition": "56.5%"}
{"SMILES": "CC(C)CC(=O)N1CCc2nc(-c3ccc(Br)cc3)nc(N(C)Cc3ccccc3)c2C1", "inhibition": "-0.56%"}
